Experimental data collected from several papers.
Numbered parts are unrelated; each lists some results of a single study.

Study 1
Target: Sal-like protein 4, full length isoform B (SALL4, Homo sapiens, UniProt Q9UJQ4-2, residues 1-616)
Technique: universal PBM
Form: double-stranded DNA, one strand shown
Matrix: in vitro
Tested at: not given
Notes: 8-mer, flanks averaged, mean of replicates
Reading: higher = stronger binding
Sequence	E-score
TCTAAAAA	0.172
ATCGTTCA	0.127
GAGAGCGC	-0.351
ATTCTAGG	0.146
CAGCTCCC	-0.308
GCACTTAC	-0.0273
AGCAGGAC	-0.244
CGGGCACG	-0.265
ACCGAGCA	-0.265
ACGAATCT	0.0719
CACCAATC	-0.0588
CTCCTAAA	0.0339
CTGCAAAA	0.158
AGGAAGGC	-0.174
ATGGATGG	-0.0258
ATCGTTGG	0.197
CTATCCGC	-0.0773
ATCTTCAA	0.211
AGATAGGG	-0.0386
CAAGGCCG	-0.209
AATCGCTA	-0.0134
TGAGGCCA	-0.0821
ATGCTCGC	-0.195
ACGTTTGG	0.139
GCGTCGGA	-0.188

Study 2
Target: RNA binding protein fox-1 homolog 2, RRM domain, GST-SBP tag (RBFOX2, Homo sapiens, UniProt O43251-10, residues 100-194)
Technique: RNA Bind-n-Seq
Form: RNA
Matrix: in vitro
Tested at: 365 nM
Notes: natural RNA segment, single round, ends assumed
Baseline: no-protein control
Reading: higher = stronger binding
Target sequence (chain): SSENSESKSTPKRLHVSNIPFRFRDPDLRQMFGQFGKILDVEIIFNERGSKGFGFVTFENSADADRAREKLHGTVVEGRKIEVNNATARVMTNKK
Sequence	RBNS enrichment (R)
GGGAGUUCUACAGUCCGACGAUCUUUUCUUUUGUCUUUUUAUUUUCAAUUAGUGACCCAUUGUUAAAUCCAAAUCCACUUUUACUGAAAAAUACUGUACAUGUGUAAAAUGUUCAGUUGUUUUUUUGUAAAAUUGGAAUUCUCGGGUGCCAA	2.29
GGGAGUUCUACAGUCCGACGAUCUGAAAAAAUGUUCCCUGGCUAGUGUACUCCAUUCUCUUUCCUAGUGGCUCGGGCCAGACUUCAUCCAUUUAGAGAGAAGCAGUACUUCCUGUUUGUGUGCCCAUCUUAAAUGGAAUUCUCGGGUGCCAA	0.456
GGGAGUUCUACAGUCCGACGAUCGUCUGCUUUUAAUGCAGCUGUGGACUGAGGUGUGGCUCAGAGGACACUUGUUCACUAAGUGUAAGACCCUGGUAUCCUUUCCUAGAACUGUCAAAAAUAAAUGGAUGGAUUGGAAUUCUCGGGUGCCAA	0.517
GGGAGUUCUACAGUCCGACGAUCUCACUAUAUAUCCCUGCAUAGAUUCCUAAUUAUGCCGUUUCUAAAUCUUAACCGAUUUCUUGAACAGUGUUUAAGUACAGUGUGAUUUGUGCCCCGAGACAGUCAGAACAUGGAAUUCUCGGGUGCCAA	0.464
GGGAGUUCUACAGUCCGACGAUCUGACUCUGCAGUGCCAGCUUGGACAGAUUGAGGUCUCUGUGGCUUUGGUGACCCUGCUUAAGCAUUCCCACCGUGUCCCAGCUCUGCUCUAGGACUGCCUCCCACUGCGGUGGAAUUCUCGGGUGCCAA	0.496
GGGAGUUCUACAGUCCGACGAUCCUUUCUGUGUUGUGUUCUGCCCUGUGCUCUUCUCUCUACGUUAACGUUUCCUGUAGUAUGUUUCUUCAUCUCAUCGCCAAGGUAGGCUUGUGUUUUUCAGUGUGUGCCUCUGGAAUUCUCGGGUGCCAA	0.634
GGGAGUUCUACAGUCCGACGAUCAGUCUCCUGCUAGUCUGACUCCUGAAGCAUCAGACCCUGUCAUACUGUAUUGACUGUGUAUGUGCCUUUCACCUUGAGCAUGCUUCAGGAAUUUUUUUUUUUCUUAAACCUGGAAUUCUCGGGUGCCAA	0.891
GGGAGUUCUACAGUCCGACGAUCAUGUUACUGAGUCAGGAGAUUCAUAAGUAACUAAGAAACUGGCAGGUCAUACUGGGCAACAGUGUUCUUCUUUAGAACACUGUAGGCUCUUCUCACUGGAAGAGCAGAGGUGGAAUUCUCGGGUGCCAA	0.232
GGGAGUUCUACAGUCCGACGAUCGUUUGCAUUGUUGAUGACAGGUUCACAAUAAAGUGACGUUCUGGUGGAGGUAGAGUGAAAUGUUUUUUAAUUCAGUUUUCUCAUUUGAUACUUUUAAUUUACAAAGUAAUUGGAAUUCUCGGGUGCCAA	0.637
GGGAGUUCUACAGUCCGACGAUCGAAGCUUAUAUCUCUCAAAUUAAUGGAUAUUAGCACUUGGAGGAAUGUAGGGGGAUCUCGGAAUGAACUCCUGGGGUUCCUGGUCUCCAGCCCAGCCUGAUGGUGUAAAUUGGAAUUCUCGGGUGCCAA	0.506
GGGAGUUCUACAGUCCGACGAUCGGCGUUUCAACUCAUAUAAUACAGAAAGAGUUUUGAAUGGGCAGAUUUCAAACUGAAUAUGGGUCCCCAAAUGUUCCCAGAGGGUCCUCCACACCCUCUGCCGACUACCAUGGAAUUCUCGGGUGCCAA	0.409
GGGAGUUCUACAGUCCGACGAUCAAAGGACCAACCUGCCUUACGUAUCAGUUUAGUUCCUGAAAUCAGUGGAACUAUUCAAGGGACGGAACUCCUCUGGAGACUCUGUUUAAACAUACUUUUCAGUUCCCGAGUGGAAUUCUCGGGUGCCAA	0.546

Study 3
Target: Interferon regulatory factor 7, full length, phosphomimetic (IRF7, Homo sapiens, UniProt Q92985, residues 1-503, S471D/S472D/S475D/S476D/S477D/S483D/S484D/S487D)
Technique: protein-binding microarray
Form: double-stranded DNA, one strand shown
Matrix: in vitro
Tested at: 2200 nM top
Notes: 60-bp whole probe
Added: salmon DNA 0.4 mg/ml
Baseline: random background probes
Reading: higher = stronger binding
Shared flanks, not repeated: GCCTAGCAC … GTCTTGATTCGCTTGACGCTGCTG
Construct (chain): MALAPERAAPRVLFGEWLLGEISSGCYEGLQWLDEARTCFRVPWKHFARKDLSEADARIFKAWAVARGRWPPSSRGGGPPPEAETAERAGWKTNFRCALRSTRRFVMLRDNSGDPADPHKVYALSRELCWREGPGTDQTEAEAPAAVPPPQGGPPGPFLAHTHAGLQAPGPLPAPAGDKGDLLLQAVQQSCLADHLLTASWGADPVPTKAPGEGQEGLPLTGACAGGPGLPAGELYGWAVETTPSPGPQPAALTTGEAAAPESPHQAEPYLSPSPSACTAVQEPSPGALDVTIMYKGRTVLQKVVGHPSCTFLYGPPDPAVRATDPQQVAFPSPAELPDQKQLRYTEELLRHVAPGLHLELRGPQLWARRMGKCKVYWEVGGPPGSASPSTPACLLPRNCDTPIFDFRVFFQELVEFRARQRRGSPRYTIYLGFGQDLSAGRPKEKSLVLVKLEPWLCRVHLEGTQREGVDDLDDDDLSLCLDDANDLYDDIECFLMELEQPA
Sequence	fitted relative affinity [z-score]
GACGGTTTCGATTATCGGGACGTGCTA	5.34
ATAGGTTTCGGACTGGGTTAGTGCTAG	3.66
GAGGAACTGAGACTGGAGACGTGCTAG	-0.777
TCAAAACTCGTATGTGACACTGTGCTA	0.107
TCAGCTTCCTCTTTACTACTGTGCTAG	2.61
TTAGGACTGGGTTTCGGGTAGTGCTAG	2.09
TGAGGTTTCGGGTATCGGTTAGTGCTA	5.63
TCGGTGATCAGTCTGATGGTGTGCTAG	0.854
GACGATTTCGGTTTTCGAGACGTGCTA	8.05
GAAGCCCTCCCTGTGGGGGGGTGCTAG	-0.413
TTAGGTATCGACACTGGGTAAGTGCTA	-0.266
GACGGACTGGACTTACGGGACGTGCTA	-0.89
TTAGGTATCAGTTTCGATTAGTGCTAG	5.85
GCTGCCCTCACCATCATCCTGTGCTAG	0.896
GTCGATATCAGACTGGAGACGTGCTAG	0.476

Study 4
Target: Prothrombin, mature alpha-thrombin (F2, Homo sapiens, UniProt P00734)
Technique: aptamer microarray, sandwich
Form: DNA with 2'F-ANA
Matrix: in vitro
Tested at: 200 nM
Notes: whole 15-mer aptamer, many near background
Added: Cy3 exosite-II aptamer, 400 nM
Reading: higher = stronger binding
Sequence: GGTTGGTGTGGTTGG
Modification	mean fluorescence intensity [a.u.]
2'F-ANA at 1 2 3 4 5 7 10 11 13 15	51.8
2'F-ANA at 1 4 11 12 13 15	172
2'F-ANA at 4 5 6 7 8 9 10 11 15	48.4
2'F-ANA at 1 3 4 5 6 7 13 14	55.1
2'F-ANA at 3 4 6 7 9 10 13 14 15	161
2'F-ANA at 1 2 4 6 7 8 9 11 12 15	196
2'F-ANA at 1 2 8 14	65.3
2'F-ANA at 7 8 10 12 14 15	126
2'F-ANA at 1 3 4 5 7 12 13 14	47.7
2'F-ANA at 1 3 5 6 9 12 13	110
2'F-ANA at 1 4 5 7 8 9 10 11 12 14	48.9
2'F-ANA at 5 6 8 10 11 13 15	48.1
2'F-ANA at 1 2 5 10 12 15	48.2
2'F-ANA at 1 4 6 9 12 13 14	48.9
2'F-ANA at 1 2 3 6 7 8 10 11 13 14	58.2
2'F-ANA at 1 3 4 5 7 8 10 12 13 14 15	199
